Results gathered from unrelated publications.
Compare with care: the assays were run in different laboratories. Several values in a cell are separate wells, animals, samples, runs or records. Numbers after ± are the reported error.
UniProt Q8BVQ5, sequence (whole entry, looked up): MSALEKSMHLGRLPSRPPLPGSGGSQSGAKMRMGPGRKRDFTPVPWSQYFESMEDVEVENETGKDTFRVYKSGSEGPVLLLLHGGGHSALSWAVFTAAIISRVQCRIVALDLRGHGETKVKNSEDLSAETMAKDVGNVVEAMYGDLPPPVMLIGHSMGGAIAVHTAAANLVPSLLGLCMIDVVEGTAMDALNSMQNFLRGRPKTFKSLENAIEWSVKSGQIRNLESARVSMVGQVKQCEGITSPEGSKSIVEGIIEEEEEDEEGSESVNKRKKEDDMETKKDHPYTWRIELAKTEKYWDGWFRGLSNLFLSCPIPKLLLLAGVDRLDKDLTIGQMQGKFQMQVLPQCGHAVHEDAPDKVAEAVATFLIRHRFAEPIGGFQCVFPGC
UniProt Q9ULC6, sequence (whole entry, looked up): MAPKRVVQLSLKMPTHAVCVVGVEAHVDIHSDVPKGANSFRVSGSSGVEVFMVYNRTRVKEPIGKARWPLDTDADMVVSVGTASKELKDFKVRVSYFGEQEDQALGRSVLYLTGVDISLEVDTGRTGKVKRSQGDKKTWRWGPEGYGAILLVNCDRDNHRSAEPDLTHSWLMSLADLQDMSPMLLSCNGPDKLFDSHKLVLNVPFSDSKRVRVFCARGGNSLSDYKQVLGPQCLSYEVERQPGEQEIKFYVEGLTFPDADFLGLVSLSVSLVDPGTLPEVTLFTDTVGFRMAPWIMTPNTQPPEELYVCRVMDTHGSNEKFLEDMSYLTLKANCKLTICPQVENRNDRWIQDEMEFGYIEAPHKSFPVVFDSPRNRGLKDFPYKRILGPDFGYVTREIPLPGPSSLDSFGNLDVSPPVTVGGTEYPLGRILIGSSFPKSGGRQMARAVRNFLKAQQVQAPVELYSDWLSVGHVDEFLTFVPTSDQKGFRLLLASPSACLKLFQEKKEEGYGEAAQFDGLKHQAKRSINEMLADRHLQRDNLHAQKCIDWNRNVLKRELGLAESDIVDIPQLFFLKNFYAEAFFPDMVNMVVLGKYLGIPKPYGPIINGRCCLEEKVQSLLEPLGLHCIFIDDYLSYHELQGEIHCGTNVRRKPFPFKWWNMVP
UniProt P21554, sequence (whole entry, unmodified, looked up): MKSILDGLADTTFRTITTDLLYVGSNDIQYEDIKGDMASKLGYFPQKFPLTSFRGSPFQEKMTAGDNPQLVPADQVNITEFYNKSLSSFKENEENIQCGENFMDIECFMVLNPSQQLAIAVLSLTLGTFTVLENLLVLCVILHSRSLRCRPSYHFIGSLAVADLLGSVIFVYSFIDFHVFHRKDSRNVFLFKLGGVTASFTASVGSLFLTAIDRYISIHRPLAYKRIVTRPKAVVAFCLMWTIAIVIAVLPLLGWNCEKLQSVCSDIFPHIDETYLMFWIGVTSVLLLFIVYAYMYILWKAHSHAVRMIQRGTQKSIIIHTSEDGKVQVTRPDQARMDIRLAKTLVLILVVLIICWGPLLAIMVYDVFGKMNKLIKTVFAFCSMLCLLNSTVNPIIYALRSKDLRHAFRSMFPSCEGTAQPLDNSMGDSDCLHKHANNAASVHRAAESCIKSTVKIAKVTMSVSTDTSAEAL
UniProt P07948, sequence (whole entry, looked up): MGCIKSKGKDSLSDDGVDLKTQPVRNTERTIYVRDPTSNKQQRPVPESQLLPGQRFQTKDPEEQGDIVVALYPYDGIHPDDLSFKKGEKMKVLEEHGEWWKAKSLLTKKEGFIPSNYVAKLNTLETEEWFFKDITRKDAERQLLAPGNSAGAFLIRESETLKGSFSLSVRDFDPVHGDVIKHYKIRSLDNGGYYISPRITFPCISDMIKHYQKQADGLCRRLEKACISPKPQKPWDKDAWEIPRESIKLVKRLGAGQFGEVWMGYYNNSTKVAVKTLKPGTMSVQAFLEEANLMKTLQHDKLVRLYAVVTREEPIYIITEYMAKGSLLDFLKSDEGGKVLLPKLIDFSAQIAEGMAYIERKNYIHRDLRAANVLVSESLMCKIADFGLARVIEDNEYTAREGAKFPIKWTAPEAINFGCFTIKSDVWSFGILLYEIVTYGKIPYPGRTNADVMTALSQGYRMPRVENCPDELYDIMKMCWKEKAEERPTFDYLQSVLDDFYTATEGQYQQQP
UniProt Q15059, sequence (whole entry, unmodified, looked up): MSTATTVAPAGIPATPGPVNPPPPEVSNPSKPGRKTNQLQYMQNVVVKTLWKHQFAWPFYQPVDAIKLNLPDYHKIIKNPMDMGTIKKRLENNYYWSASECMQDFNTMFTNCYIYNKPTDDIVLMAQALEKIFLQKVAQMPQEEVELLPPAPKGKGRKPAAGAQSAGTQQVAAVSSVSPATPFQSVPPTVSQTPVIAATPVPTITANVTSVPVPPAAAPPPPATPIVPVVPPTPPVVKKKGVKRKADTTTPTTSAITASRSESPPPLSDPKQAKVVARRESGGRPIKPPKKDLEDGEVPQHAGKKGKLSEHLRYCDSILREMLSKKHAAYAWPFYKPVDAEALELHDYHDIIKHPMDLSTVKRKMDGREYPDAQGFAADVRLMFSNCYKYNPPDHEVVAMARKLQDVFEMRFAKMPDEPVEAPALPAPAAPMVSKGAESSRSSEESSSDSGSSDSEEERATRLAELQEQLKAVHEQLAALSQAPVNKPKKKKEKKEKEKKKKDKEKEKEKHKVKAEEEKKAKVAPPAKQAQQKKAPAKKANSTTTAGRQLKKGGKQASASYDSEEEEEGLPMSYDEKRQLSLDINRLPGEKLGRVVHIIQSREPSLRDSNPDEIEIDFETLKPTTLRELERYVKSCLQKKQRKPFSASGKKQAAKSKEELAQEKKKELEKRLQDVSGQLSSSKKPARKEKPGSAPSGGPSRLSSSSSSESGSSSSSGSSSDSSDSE
UniProt Q13976, sequence (whole entry, looked up): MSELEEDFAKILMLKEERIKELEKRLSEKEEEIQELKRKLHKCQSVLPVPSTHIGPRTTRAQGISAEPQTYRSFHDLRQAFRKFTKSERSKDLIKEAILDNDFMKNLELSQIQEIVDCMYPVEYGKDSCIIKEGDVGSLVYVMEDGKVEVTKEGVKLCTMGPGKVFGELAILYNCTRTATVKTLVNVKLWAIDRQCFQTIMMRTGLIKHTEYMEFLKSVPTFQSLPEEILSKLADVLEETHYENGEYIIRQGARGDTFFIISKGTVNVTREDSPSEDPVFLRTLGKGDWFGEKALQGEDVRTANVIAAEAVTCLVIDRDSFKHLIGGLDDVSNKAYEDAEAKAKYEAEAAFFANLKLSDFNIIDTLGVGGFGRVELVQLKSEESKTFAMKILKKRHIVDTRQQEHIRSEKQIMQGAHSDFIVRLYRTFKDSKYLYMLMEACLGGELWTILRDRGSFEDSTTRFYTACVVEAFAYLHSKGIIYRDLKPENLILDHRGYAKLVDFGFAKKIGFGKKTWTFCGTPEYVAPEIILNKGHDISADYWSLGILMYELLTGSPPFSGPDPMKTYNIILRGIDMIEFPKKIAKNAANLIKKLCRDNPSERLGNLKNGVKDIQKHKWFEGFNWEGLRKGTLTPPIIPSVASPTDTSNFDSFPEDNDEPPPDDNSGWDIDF
UniProt P07332, sequence (whole entry, looked up): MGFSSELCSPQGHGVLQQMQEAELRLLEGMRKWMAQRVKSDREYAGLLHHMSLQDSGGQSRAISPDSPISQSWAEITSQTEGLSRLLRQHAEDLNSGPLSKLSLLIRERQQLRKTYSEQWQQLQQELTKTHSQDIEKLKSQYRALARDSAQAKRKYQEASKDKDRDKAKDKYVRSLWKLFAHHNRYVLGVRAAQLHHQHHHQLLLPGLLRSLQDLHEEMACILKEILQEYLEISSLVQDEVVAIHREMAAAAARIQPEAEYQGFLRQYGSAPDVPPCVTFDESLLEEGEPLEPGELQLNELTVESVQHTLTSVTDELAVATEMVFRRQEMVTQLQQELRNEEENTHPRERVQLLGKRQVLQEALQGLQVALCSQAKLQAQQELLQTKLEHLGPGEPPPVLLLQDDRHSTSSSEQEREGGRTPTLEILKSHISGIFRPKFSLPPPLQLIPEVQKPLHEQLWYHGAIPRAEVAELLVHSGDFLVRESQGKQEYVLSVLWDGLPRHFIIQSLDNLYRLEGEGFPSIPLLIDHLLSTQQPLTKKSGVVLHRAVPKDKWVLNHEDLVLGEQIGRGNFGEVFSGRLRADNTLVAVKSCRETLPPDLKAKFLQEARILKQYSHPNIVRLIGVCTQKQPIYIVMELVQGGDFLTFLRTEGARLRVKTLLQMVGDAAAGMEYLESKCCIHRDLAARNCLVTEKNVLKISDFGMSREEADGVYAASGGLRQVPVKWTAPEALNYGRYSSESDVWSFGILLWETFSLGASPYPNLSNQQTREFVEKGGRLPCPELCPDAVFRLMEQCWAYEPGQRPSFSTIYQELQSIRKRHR
UniProt Q86UX6, sequence (whole entry, looked up): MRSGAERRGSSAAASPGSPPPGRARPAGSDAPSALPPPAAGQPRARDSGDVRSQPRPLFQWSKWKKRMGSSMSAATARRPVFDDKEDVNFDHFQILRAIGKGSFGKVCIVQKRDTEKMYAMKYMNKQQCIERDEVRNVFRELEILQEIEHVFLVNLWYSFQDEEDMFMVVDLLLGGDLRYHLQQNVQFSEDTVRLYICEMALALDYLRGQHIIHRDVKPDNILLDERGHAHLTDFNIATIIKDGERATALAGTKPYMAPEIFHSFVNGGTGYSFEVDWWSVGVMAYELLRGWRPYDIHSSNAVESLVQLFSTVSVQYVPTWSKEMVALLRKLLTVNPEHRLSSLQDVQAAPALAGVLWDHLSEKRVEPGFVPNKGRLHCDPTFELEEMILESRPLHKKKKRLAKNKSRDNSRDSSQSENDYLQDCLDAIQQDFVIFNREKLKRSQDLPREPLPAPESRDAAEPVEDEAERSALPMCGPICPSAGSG

SMILES | tested on | test | test system | setting | scale | quantity | result
O=C1NC(=O)c2c1c1cc(F)c[n+]3c1c1c2c2cc(O)ccc2[n]1[Ru-4]312([N]=C=S)[S+]3CC[S+]1CC[S+]2CC3 (centres unmarked) | KIT (Homo sapiens, UniProt P10721, V560G) | enzyme activity | – | 100 nM, human enzyme, added: 10 µM ATP | reference: untreated | remaining activity | 13%
Cc1ccc2c(C(C[N+](=O)[O-])c3cccs3)c(-c3ccccc3)[nH]c2c1 (centres unmarked) | CNR1 (Homo sapiens, UniProt P21554, Y397F) | β-arrestin recruitment, agonist, luciferase | – | – | – | Emax | 26.4%
CC(C)[C@H]1NC(=O)C[C@H]2/C=C/CCSSC[C@@H](NC1=O)C(=O)N[C@H](Cc1cccc3ccccc13)C(=O)NCC(=O)O2 | PRKG1 (Homo sapiens, UniProt Q13976) | enzyme activity, inhibitor | – | 10 µM | – | inhibition | -4.7%
CN(C)[C@H]1C[C@@]23CC[C@@]4(O2)C(=CC[C@]2(C)[C@@H](c5ccc6ccncc6c5)CC[C@H]24)C=C3[C@@H](O)[C@@H]1O | FES (Homo sapiens, UniProt P07332) | ATP probe labelling, inhibitor, KiNativ profiling | – | 1 µM | – | inhibition | -8.5%
CS(C)(=O)=Nc1ccc(-c2ccc(-c3nc4cc(O[C@@H]5CO[C@H]6[C@@H]5OC[C@H]6O)[nH]c4cc3F)cc2)cc1 | LYN (Homo sapiens, UniProt P07948) | enzyme activity, inhibitor | – | 10 µM | – | inhibition | 3%
Nc1ccc(/C=C/C(=O)N2CCc3c(oc4c(-c5ccc(F)cc5)cc(-c5ccc(C(=O)N6CCC(F)(F)CC6)cn5)cc34)C2)cn1 | STK32C (Homo sapiens, UniProt Q86UX6) | binding, competition with immobilised ligand | – | 1 µM | – | remaining binding | 97%
CC(C)CC(O)(CC(C)C)c1cn(C(=O)N2CCCC2)nn1 | Protein phosphatase methylesterase 1 (Mus musculus, UniProt Q8BVQ5) | probe labelling, inhibitor, competitive ABPP-SILAC, measured: Ppme1 | mouse T cells | concentration not given, 4 h, single peptide | reference: treated over DMSO cells, lower = stronger inhibition | SILAC activity ratio | 1.22 and 1.25 and 1 and 1.13 and 1.08
COc1ccccc1C(C[N+](=O)[O-])c1c(-c2ccccc2)[nH]c2ccccc12 (centres unmarked) | CNR1 (Homo sapiens, UniProt P21554, N393A) | G protein activation, agonist | – | 100% | – | Emax | 92.6 ± 4.06%
Cc1sc2c(c1C)C(c1ccc(Cl)cc1)=N[C@@H](CC(=O)OC(C)(C)C)c1nnc(C)n1-2 | Bromodomain-containing protein 3, BD2 (BRD3, Homo sapiens, UniProt Q15059) | isothermal titration calorimetry | – | 15 °C, reverse titration | – | observed ΔH | -4.93 ± 0.017 kcal/mol
O=C1NC2(CC2)COc2ncc(F)cc2[C@H]2COCCN2c2ccn3ncc1c3n2 | – | – | Sprague-Dawley rats, female, blood | oral, 10 mg/kg/day, end of recovery, 4-week subacute toxicity | – | haematocrit | 39.8 ± 3.5%
N[C@H](C(=O)N1CCCC1)C1CCN(c2nccc3c(-c4ncc(Cl)cc4Cl)cccc23)CC1 | PADI1 (Homo sapiens, UniProt Q9ULC6) | enzyme activity | – | 1.536 µM, added: Ca2+ 0.25 mM | – | kcat | 0.0206 s⁻¹ and 0.0272 s⁻¹

A few entries again:
SMILES | tested on | test | test system | setting | scale | quantity | result
O=C1NC2(CC2)COc2ncc(F)cc2[C@H]2COCCN2c2ccn3ncc1c3n2 | – | – | Sprague-Dawley rats, female, blood | oral, 10 mg/kg/day, end of recovery, 4-week subacute toxicity | – | haematocrit | 39.8 ± 3.5%
